{"data": "Measurements gathered from unrelated publications", "note": "Compare with care: the assays were run in different laboratories. ± marks the error that the study gave."}
{"SMILES": "O=CC1([C@@H]2CC(=O)N(c3ccccc3)C2=O)CCCCC1", "assay": "DPPH radical scavenging", "IC50": "298 µM"}
{"SMILES": "N=C(N)NCCC[C@H](NC(=O)[C@@H]1CCCN1C(=O)CNC(=O)[C@@H](N)Cc1c[nH]c2ccccc12)C(=O)O", "assay": "platelet aggregation, inhibitor", "system": "rat platelet-rich plasma", "setting": "5 min preincubation, 37 °C, added: ADP 0.1 mM", "IC50": "~209 µM"}
{"SMILES": "NC[C@H]1O[C@H](O[C@H]2[C@H](O)[C@@H](O[C@H]3O[C@H](CO)[C@@H](O)[C@H](N)[C@H]3O)[C@H](N)C[C@@H]2N)[C@H](N)C[C@@H]1O", "assay": "[14C]-phenylalanine incorporation, inhibitor, (UUU)12-directed cell-free translation", "system": "M. smegmatis 70S ribosomes, human cytosolic hybrid decoding site", "setting": "60 min, 37 °C", "IC50": "> 500 µM"}
{"SMILES": "N[C@@H](CC(=O)O)C(=O)N[C@@H](CCC(=O)O)C(=O)NCC(=O)N1CCC[C@H]1C(=O)O", "assay": "platelet aggregation, inhibitor", "system": "rat platelet-rich plasma", "setting": "5 min preincubation, 37 °C, added: ADP 0.1 mM", "IC50": "290 µM"}
{"SMILES": "CCN[C@@H]1C[C@H](N)[C@@H](O[C@H]2OC(CN)=CC[C@H]2N)[C@H](O)[C@H]1O[C@H]1OC[C@](C)(O)[C@H](NC)[C@H]1O", "assay": "[14C]-phenylalanine incorporation, inhibitor, (UUU)12-directed cell-free translation", "system": "M. smegmatis 70S ribosomes, Leishmania/Trypanosoma hybrid decoding site", "setting": "60 min, 37 °C", "IC50": "> 500 µM"}
{"SMILES": "CO/C(=C/C(N)=O)[C@H](C)[C@H](/C=C/c1csc(-c2csc([C@@H](C)/C=C/C=C/C(C)C)n2)n1)OC", "assay": "succinate-dependent oxygen uptake, inhibitor", "system": "rat liver mitochondria", "setting": "added: succinate 15 mM", "IC50": "0.0165 µM"}
{"SMILES": "CCNC(=O)[C@H]1O[C@@H](n2cnc3c(N)nc(NCCc4ccc(CCC(=O)NCCN)cc4)nc32)[C@H](O)[C@@H]1O", "assay": "platelet aggregation, inhibitor", "system": "human washed platelets", "setting": "added: ADP 5 µM", "IC50": "0.0359 ± 0.017 µM"}
{"SMILES": "C/C(=C\\Cc1c(O)c(Cl)c(C)c(C=O)c1O)CC/C=C(\\C)[C@@H]1CC(=O)C(C)(C)O1", "assay": "succinate-dependent oxygen uptake, inhibitor", "system": "rat liver mitochondria", "setting": "added: succinate 15 mM", "IC50": "16 µM"}
{"SMILES": "NC[C@@H]1O[C@H](O[C@H]2[C@@H](O)[C@H](O[C@@H]3[C@@H](O)[C@H](N)C[C@H](N)[C@H]3O[C@H]3O[C@H](CO)[C@@H](O)[C@H](O)[C@H]3N)O[C@@H]2CO)[C@H](N)[C@@H](O)[C@@H]1O", "assay": "[14C]-phenylalanine incorporation, inhibitor, (UUU)12-directed cell-free translation", "system": "M. smegmatis 70S ribosomes, human cytosolic hybrid decoding site", "setting": "60 min, 37 °C", "IC50": "> 500 µM"}
{"SMILES": "C=C(C)[C@@H]1CCC(CO)=C[C@H]1c1c(O)cc(CCCCC)cc1O", "assay": "nicotine demethylation to nornicotine, inhibitor", "system": "pooled human liver microsomes", "setting": "added: nicotine 500 µM", "IC50": "0.74 ± 0.24 µM"}
{"SMILES": "N.N.[Cl][Pt][Cl]", "assay": "angiogenesis, inhibitor", "system": "chick chorioallantoic membrane", "setting": "48 h, added: VEGF and bFGF", "IC50": "18.2 ± 2.1 µM"}
{"SMILES": "C[C@@H]1C[C@@H]([C@H](O)CC2CC(=O)NC(=O)C2)C(=O)[C@@H](C)C1", "assay": "translation, inhibitor, item: firefly luciferase reporter", "system": "Krebs-2 cell lysate", "IC50": "~0.5 µM"}
{"SMILES": "CNC(C)C1CCC(N)C(OC2C(N)CC(N)C(OC3OCC(C)(O)C(NC)C3O)C2O)O1 (stereo not drawn)", "assay": "[14C]-phenylalanine incorporation, inhibitor, (UUU)12-directed cell-free translation", "system": "M. smegmatis 70S ribosomes, human cytosolic hybrid decoding site", "setting": "60 min, 37 °C", "IC50": "> 500 µM"}
{"SMILES": "CCCCCC(O)C=CC=O (stereo not drawn)", "assay": "[3H]dopamine uptake, inhibitor", "system": "rat striatal synaptosomes", "IC50": "450 µM"}
{"SMILES": "C=C(C)[C@@H]1CCC(C)=C[C@H]1c1c(O)cc(CCCCC)cc1O", "assay": "nicotine C-oxidation to cotinine, inhibitor", "system": "pooled human liver microsomes", "setting": "added: nicotine 500 µM", "IC50": "0.98 ± 0.28 µM"}
{"note": "Excerpt of the above:"}
{"SMILES": "O=CC1([C@@H]2CC(=O)N(c3ccccc3)C2=O)CCCCC1", "assay": "DPPH radical scavenging", "IC50": "298 µM"}
